Published values from different studies.
Protocols differ between the studies behind these lines. ± marks the error that the study gave.

SMILES	assay	system	setting	how to read	endpoint	result
COc1ccc(C2CC(c3ccc(C)cc3)=Nc3ccccc3S2)cc1OC (centres unmarked)	–	Wistar rat, STZ-induced diabetes	oral, 10 mg/kg once daily, day 28	–	blood glucose	128 mg/dL
OCc1cnn(-c2ccccc2)n1	plasma recalcification time	human plasma	1 µM	–	clotting time	260 ± 10 s
CC(C)[C@H](NC(=O)CN)C(=O)N[C@@H](CCCCN)C(=O)NCC(=O)N[C@@H](CC(=O)O)C(=O)N[C@@H](CCCCN)C(=O)NCC(=O)N[C@@H](CC(N)=O)C(=O)N1CCC[C@H]1C(=O)NCC(=O)N[C@@H](Cc1c[nH]c2ccccc12)C(=O)N1CCC[C@H]1C(=O)NCC(=O)N[C@@H](C)C(=O)N1CCC[C@H]1C(=O)O	microchemotaxis chamber	K1735 M4 melanoma, mouse	100 to 200 µg/mL filter coating, 6 h, peptide-coated filters	relative to: BSA-coated control	maximal cell motility	5 fold
Cc1sc(-c2ccc(C(F)(F)F)cc2)nc1-c1nn[nH]c1C#N	–	male ZDF rat	oral, 10 mg/kg/day, 1008 h	relative to: vehicle	HbA1c reduction	1.3 percentage points
Cc1cc2c(cc1O)C=C1C=CC(=O)C(C)(C)[C@H]1CC2	item: macrophages, DCs, MDSCs	C57BL/6J mouse antibiotic-treated DSS colitis, colon	dose not given	relative to: DSS alone	immune cell proportion	no effect
COc1ccc2c(c1)c(CC(=O)OCC(=O)OC(C)(C)C)c(C)n2C(=O)c1ccc(Cl)cc1	hot plate test	BALB/c mice	75 mg/kg, 0 min	–	latency of nociceptive response	10 ± 0.75 s
C[C@H](NC(=O)COC(=O)[C@H](C)NC(=O)CO)C(=O)O	–	water	pH 6, 50 °C	–	depolymerization rate constant	0.914 h⁻¹
CC(C)OC(=O)[C@H](CO)NCc1cc(Cl)c(OCc2cccc(-c3ccccc3)c2Br)cc1OCc1cccnc1	–	hPD-L1 MC-38 tumour, humanised hPD-1 C57BL/6 mouse	oral, 10 mg/kg × 21	–	tumour weight inhibition	67.9%
CC(CCC(=O)NCc1ccc(C(=O)NO)cc1)C1CCC2C3C(O)CC4CC(O)CCC4(C)C3CCC12C (centres unmarked)	–	PCK rats	oral gavage, 15 mg/kg/day, 5 months	relative to: untreated	kidney to body weight ratio	decreased
N=C(N)SCc1ccccc1CSC(=N)N	ELISA	mouse, CT26-Ido1 tumour, tumour	dose not given	–	Kyn/Trp ratio	decreased
COc1ccc2c(c1OC)C(C(Cl)(Cl)Cl)N1CCc3cc4c(cc3C1=C2)OCO4 (centres unmarked)	–	rat, STZ-induced diabetic, liver	oral, 12 mg/kg, day 28	–	SOD activity	8.1 ± 0.77 U/mg protein
C=C(c1cc(F)c(C(=O)O)c(F)c1)c1cc2c(cc1C)C(C)(C)CCC2(C)C	RNA sequencing, item: Sycp2	rat, brain	dose not given, 24 h	relative to: vehicle	log2 fold change	-0.25
O=C(O)c1ccc(/C=C2\SC(=S)N(Cc3cccc(C(F)(F)F)c3)C2=O)cc1	–	Nlrp3-/- mouse, Listeria infection	40 mg/kg	–	IL-1β production	no effect
S=c1n(CN2CCN(c3ccccn3)CC2)nc(C23CC4CC(CC(C4)C2)C3)n1-c1ccccc1	–	rat carrageenan paw oedema	intraperitoneal, 20 mg/kg, 4 h after carrageenan	relative to: vehicle control	paw oedema inhibition	33.52 ± 0.23%
Cc1cc(Nc2cc3ncccc3c(N[C@@H]3C[C@H]4CC[C@@H](C3)N4CCC#N)n2)n[nH]1	–	moderate-severe ulcerative colitis patients	20 mg, day 28	relative to: patients	endoscopic response	20%
C=C1C(=O)OC2C1CCC1(C)OC13CC1OC1(C)C23 (single isomer, unassigned)	–	alveolar liver cancer PC-1, outbred white rat	intraperitoneal, maximum tolerated dose, daily, 5 days	–	tumour growth inhibition	59 to 88%
CCCCCCCCCCCCCCCC(=O)N[C@@H](CCC(=O)NCCCC[C@H](NC(=O)[C@H](CC(=O)O)NC(=O)[C@H](CO)NC(=O)[C@@H](NC(=O)[C@H](Cc1ccccc1)NC(=O)[C@@H](NC(=O)CNC(=O)[C@H](CCC(N)=O)NC(=O)[C@H](CO)NC(=O)[C@@H](N)Cc1c[nH]cn1)[C@@H](C)O)[C@@H](C)O)C(=O)N[C@@H](CO)C(=O)N[C@@H](CCC(=O)O)C(=O)N[C@@H](Cc1ccc(O)cc1)C(=O)N[C@@H](CC(C)C)C(=O)N[C@@H](CC(=O)O)C(=O)N[C@@H](CO)C(=O)N[C@@H](CCC(=O)O)C(=O)N[C@@H](CCCNC(=N)N)C(=O)N[C@@H](C)C(=O)N[C@@H](CCCNC(=N)N)C(=O)N[C@@H](CC(=O)O)C(=O)N[C@@H](Cc1ccccc1)C(=O)N[C@H](C(=O)N[C@@H](C)C(=O)N[C@@H](Cc1c[nH]c2ccccc12)C(=O)N[C@@H](CC(C)C)C(=O)N[C@@H](CCC(=O)O)C(=O)N[C@@H](C)C(=O)NCC(=O)NCC(=O)O)C(C)C)C(=O)O	intraperitoneal glucose tolerance test	diet-induced obese mouse	subcutaneous, 1 nmol/kg, 1 h before glucose, with: glucose 1.5 g/kg intraperitoneal	–	glucose AUC	877 mmol·min/L
CCCCCCCCCC(=O)OCc1cn(-c2ccc(Cl)cc2)nn1	aPTT	human plasma	10 µM	–	clotting time	48.3 ± 0.7 s
CC(=O)c1cnc(N)nc1N1CC[C@H]1c1nn2ccc(Cl)c2c(=O)n1-c1ccccc1	anti-IgD B cell activation, item: CD86	rat, blood	oral, 1 mg/kg, up to 8 h	–	inhibition	> 90%

SMILES	assay	system	setting	how to read	endpoint	result
CCCCCCOC(=O)Cc1c(C)n(C(=O)c2ccc(Cl)cc2)c2ccc(OC)cc12	hot plate test	BALB/c mice	100 mg/kg, 0 min	–	latency of nociceptive response	10.1 ± 0.38 s
Cc1cc(O)c(C=O)c2c1C(=O)Oc1c(CO)c(O)c3c(c1O2)C(O)OC3=O (centres unmarked)	histopathology	rat, male, streptozotocin-induced diabetes, testis	5 mg/kg, 9 weeks	–	seminiferous tubule diameter	194 ± 12.4 µm
CC(=O)N[C@H](CSSC[C@H](N)C(=O)O)C(=O)N[C@H](C)C(=O)N[C@H](CCCNC(=N)N)C(=O)N[C@H](CCCNC(=N)N)C(=O)N[C@H](CCCNC(=N)N)C(=O)N[C@H](C)C(=O)N[C@H](CCCNC(=N)N)C(N)=O	–	healthy male human, urine	intravenous, 0.5 to 10 mg single	–	fractional calcium excretion	no effect
Nn1c(S)nnc1CCN(c1ccc(Cl)cc1)S(=O)(=O)c1ccccc1	paw oedema	rat carrageenan oedema	200 mg/kg, 1 h	–	inhibition	43.6%
C[C@H]1CN(C(=O)c2cn(-c3ccnc(N)n3)c3cc(C#CC4(O)CCCCC4)ccc23)CCN1	–	A549, mice, lung metastasis model	intravenous, 50 mg/kg daily	–	mice with lung metastases	19.5%
COc1c2c(cc3oc(COC4OC(CO)C(O)C(O)C4O)cc(=O)c13)OC(C(C)(C)O)C2 (centres unmarked)	analgesic effect	Kunming mouse, female	oral, 4 mg/kg, 0 h, 55 °C, before dosing, 30 s cut-off	–	hot plate latency	9.18 ± 1.34 s
Cc1cc2c(cc1C1(c3ncc(C(=O)O)cn3)CC1)C(C)(C)CCC2(C)C	RNA sequencing, item: Ccl6 mRNA	rat, brain	dose not given, 24 h, single dose	relative to: vehicle	log2 fold change	-1.39
CCCN(c1ccc(C(=O)NCCC(=O)O)cc1)S(=O)(=O)c1cc(C)c(-c2ccc(C(C)(C)C)cc2)c(C)c1	glucagon challenge test	mouse, HFD-induced obese	oral, 50 mg/kg, with: glucagon 15 µg/kg ip	–	glucose AUC	decreased
O/N=C/c1cnn(-c2ccccc2)n1	aPTT	human plasma	1 µM	–	clotting time	51.5 ± 0.8 s
CC[C@H]1[C@@H](O)[C@@H]2[C@H](CC[C@]3(C)[C@@H]([C@H](C)CCOS(=O)(=O)[O-])CC[C@@H]23)[C@@]2(C)CC[C@@H](O)C[C@@H]12.[Na+]	–	ob/ob NASH mouse, liver	10 mg/kg, 8 weeks	–	Cidec mRNA level	40.8 ± 10.8 RPKM
CCCCOCc1cn(-c2cc(Cl)ccc2Cl)nn1	plasma recalcification time	human plasma	1 µM	–	clotting time	244 ± 11 s
CN1Cc2c(Cl)cc(Cl)cc2C(c2cccc(S(=O)(=O)NCCOCCOCCOCCNC(=O)C(O)C(O)C(=O)NCCOCCOCCOCCNS(=O)(=O)c3cccc(C4CN(C)Cc5c(Cl)cc(Cl)cc54)c3)c2)C1 (centres unmarked)	–	Sprague Dawley rats	oral, 3 mg/kg, 16 h	–	fecal water content	56 % by weight
C=CC(=O)Nc1cc(Nc2nccc(-n3ccc4nc(OC)ccc43)n2)c(OC)cc1N(C)CCN(C)C	–	human	40 mg once daily, 14 weeks	–	tumour shrinkage	50.3%
COc1ccc(-n2cc(CO)nn2)cc1	plasma recalcification time	human plasma	1 µM	–	clotting time	284 ± 4 s
O=[N+]([O-])c1ccc(S(=O)(=O)Oc2ccc(Br)cc2C=NNC(=S)Nc2ccccc2)c([N+](=O)[O-])c1	conversion to phenolic chelator	PBS/DMF 1:1	100 µM, pH 7.40, 37 °C, with: glutathione 10 mM	–	time to complete conversion	≤ 2 h
CC(C)C1=C(OC(=O)CCc2ccccc2)C(=O)C2=C(C=C[C@H]3C(C)(C)CCC[C@]23C)C1=O	oxygen radical absorbance capacity, fluorometric	–	–	–	ORAC	0.757 Trolox equivalents
CCC1CC2C(C)=CC3C(=O)CCCC3C=CC(C)=CC2C(=O)O1 (centres unmarked)	dot blot	5XFAD transgenic mouse, hippocampus RIPA-soluble lysate	oral gavage, 30 mg/kg/day, 5 days	relative to: vehicle	total soluble Aβ reduction	18.7%
CC/C=C\C/C=C\C/C=C\C/C=C\C/C=C\CCCCOC(CC)C(=O)O (centres unmarked)	–	APOE*3Leiden.CETP mice, high-fat/cholesterol diet	dose not given, 20 weeks	relative to: control	serum amyloid A change	-68%
O=S(=O)(c1ccccc1)N(CCc1nnc(S)o1)c1ccccc1	–	rat	100 mg/kg, 5 h, with: carrageenan	–	paw edema inhibition	40.1%
